Assay results gathered from unrelated publications.
Numbered parts are unrelated; each lists some results of a single study. Substitutions count along the parent as printed.

Sample 1
Target: RNA binding protein fox-1 homolog 2, RRM domain, GST-SBP tag (RBFOX2, Homo sapiens, UniProt O43251-10, residues 100-194)
Method: RNA Bind-n-Seq
Molecule type: RNA
Medium: in vitro
Tested at: 365 nM
Notes: natural RNA segment, single round, ends assumed
Baseline: no-protein control
Reading: higher = stronger binding
Target sequence (chain): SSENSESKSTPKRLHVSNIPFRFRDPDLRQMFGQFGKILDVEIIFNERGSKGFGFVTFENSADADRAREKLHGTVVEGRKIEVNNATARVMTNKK
Sequence | RBNS enrichment (R)
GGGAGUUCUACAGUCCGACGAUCUUGUGUUUUGGCAGCAUUUUAAGGCAUGGUGGUCCCUCAGGCUUUGAAAACGCCUCUUGCCUAUGUUAGUUACCCAUUCUCAACACUGGGCCAUGGCUGCAGAUGGAAUUUGGAAUUCUCGGGUGCCAA | 0.481
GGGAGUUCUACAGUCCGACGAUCUAAAUGUGAUCAGGACUAUAAUAUUGUACAGUUAUUAUAGGGCUUUUGGGGAAGGGGAGGAUAGCGAGAAGAUGCUCUGGGGGUUUUGUUUUUGCUUUUCCUUCAGGGUUUGGAAUUCUCGGGUGCCAA | 2.1
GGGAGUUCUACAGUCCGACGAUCUAUAUUUCCAAGUUAGCAGUUAUGCAGCUCAAAAGCAGUAUUUGGCUUUAUAGUAAAUUUGUUUCUAAAUCUAAUAACUUUAAAAUAGAAACUUAAGUAAAUAUGGCUUAUGGAAUUCUCGGGUGCCAA | 0.361
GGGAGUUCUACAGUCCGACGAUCGGAGUGGGGACAGUGGACAGAGCAUACCUGGUGGCAGGUUGGGAGGGGCCACUCAGCGUCCCCCCCAUUUCUCAGAAAAUCUCCAGUCCCACCCAGGGACCCCACCCUGGUGGAAUUCUCGGGUGCCAA | 0.204
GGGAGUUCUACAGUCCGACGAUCAUAUUAUUUGAGCUAUUUAAAGCUUAUUAUAUUUUAGUAUGAACUAAAUGAAGGUUAAAACAUGCUUAAGAAAAAUGCACUGAUUUCUGCAUUAUGUGUACAGUAUUGGAUGGAAUUCUCGGGUGCCAA | 0.346
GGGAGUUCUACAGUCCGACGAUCUGUUGAGAUUUCCAUGUGAGAACUGAUAAUCAGGCUCUUGAUCUGCUUCCCUAAAUUACUUUUUUAGAGCCCAAACCCCAGGUUUAGGGUGAGGGUUUGUAAUACAAAGAUGGAAUUCUCGGGUGCCAA | 0.372
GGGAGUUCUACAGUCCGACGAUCUUCCCCACCCUGGGGAGCACAUAAAGAAGCUUGCCAAGGGGGGCGUCCUUGCUCCCCAGUUGUCCUGUUUCUGUAACUUAUGAUGUCUUUUCCCUGAGAUGGGGGCUCAGUGGAAUUCUCGGGUGCCAA | 0.327
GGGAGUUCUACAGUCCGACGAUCUGUGAAACAGUGUGCUGUGUUUUGUACAAAGAUUUCACGAAAGGGAGAGUCCUUCUAAACCUAUAUUCUGCUCCACCGCAACUCCCUCACCUAUCCUCAGGCUCACAGUGUGGAAUUCUCGGGUGCCAA | 0.438
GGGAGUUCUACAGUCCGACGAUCUUUGCAGAUGUAAUAAACUUUAAUAUAAAGGAGUCCUAUGAACUCUACUGCUUCUGCUUCUUCUUCUCUGGACUGGUGGUAUAGAUAUAGCCACCCUUUGCCCAAACCCUUGGAAUUCUCGGGUGCCAA | 0.234
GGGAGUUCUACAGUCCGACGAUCUUGGUGCCAGUCCCUCAGUCCCACCUCUUUACUCGGACCAUGGACCCUGCCACUGCCAGCUCUUAGUACAGUCCCAACUACCGUAGACCAGGUGACAUUUGUUGACACCAUGGAAUUCUCGGGUGCCAA | 0.425
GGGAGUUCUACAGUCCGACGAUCAGAGGCAGCCUGCUGCCUGGAUGCUGGUCUCCCCAGCAUCACUGUUCCCAUGGAGCUCAGGUCAGGCUCUGUAUUCAGACCGAGGGUUUGUGUGAGGCUCAGAGCAAAUGUGGAAUUCUCGGGUGCCAA | 0.275
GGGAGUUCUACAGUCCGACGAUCUCAAGUCUGCGAGGCUAGGCACUUCCUCUCCCACGAAGGCCAGACAAGAAGGCCCAGCUAGAAGAACAUAUCCCACACACAGGCAACAGCUUUUGGGAUAGCCCCCGCUCUGGAAUUCUCGGGUGCCAA | 0.287

Sample 2
Target: Sal-like protein 4, full length isoform B (SALL4, Homo sapiens, UniProt Q9UJQ4-2, residues 1-616)
Method: universal PBM
Molecule type: double-stranded DNA, one strand shown
Medium: in vitro
Tested at: not given
Notes: 8-mer, flanks averaged, mean of replicates
Reading: higher = stronger binding
Sequence | E-score
CGGGAAGA | 0.0125
AAGATGAG | -0.0566
ACCTCATG | -0.104
GGAATTCA | 0.0629
TGTGATAA | 0.27
CAAACCAA | 0.116
CAACACCC | -0.111
AGCACTAG | -0.11
ATATTGCG | 0.326
GGACTTAA | -0.0462
GAGGGAGA | -0.127
AGCGAACG | -0.29
CTACGTAG | 0.0637
AACAGCCG | -0.144
GATACAGC | 0.156
GTATATCA | 0.341
AGGGGGAT | -0.0322
GCTCGTAC | -0.0982
TGATAGAA | 0.195
ACTGCTAT | -0.00194
GGCTTAAC | -0.0387
AACACGTT | 0.121
AAACGCGT | -0.0392

Sample 3
Target: CEBPD, bZIP domain (human)
Method: DHFR protein complementation
Medium: yeast
Notes: single substitutions, most at no-binding floor
Baseline: wild-type JUN-FOS pair
Reading: higher = stronger binding
Starting sequence: JUN, bZIP domain (human); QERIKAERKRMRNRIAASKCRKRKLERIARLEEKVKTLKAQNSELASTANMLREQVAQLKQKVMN; partner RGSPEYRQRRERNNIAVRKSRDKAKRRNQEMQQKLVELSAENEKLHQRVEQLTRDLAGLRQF
Substitution | binding fitness
R53I | -1.42 natural log
L31K | -1.5 natural log
L31C | -1.45 natural log
E33I | -1.55 natural log
N42W | -1.45 natural log
L38A | -1.29 natural log
L52R | -1.48 natural log
T48H | -1.47 natural log
A57N | -1.36 natural log
N42Y | -1.48 natural log
A40L | -1.34 natural log
R30L | -1.36 natural log
I28M | -1.32 natural log
I28W | -1.22 natural log

Sample 4
Target: ABI1, truncated, D143A, DHFR fusion (Arabidopsis thaliana)
Method: DHFR PCA, deep sequencing
Medium: yeast
Notes: methotrexate growth selection, single substitutions
Added: (+)-ABA 0 µM
Baseline: wild-type fitted maximum
Reading: higher = stronger binding
Starting sequence: PYL1, truncated, DHFR fusion (Arabidopsis thaliana); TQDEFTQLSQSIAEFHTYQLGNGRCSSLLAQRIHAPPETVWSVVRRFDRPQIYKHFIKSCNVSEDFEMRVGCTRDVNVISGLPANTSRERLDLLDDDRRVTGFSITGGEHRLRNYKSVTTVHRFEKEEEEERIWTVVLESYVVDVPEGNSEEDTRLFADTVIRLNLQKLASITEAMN; partner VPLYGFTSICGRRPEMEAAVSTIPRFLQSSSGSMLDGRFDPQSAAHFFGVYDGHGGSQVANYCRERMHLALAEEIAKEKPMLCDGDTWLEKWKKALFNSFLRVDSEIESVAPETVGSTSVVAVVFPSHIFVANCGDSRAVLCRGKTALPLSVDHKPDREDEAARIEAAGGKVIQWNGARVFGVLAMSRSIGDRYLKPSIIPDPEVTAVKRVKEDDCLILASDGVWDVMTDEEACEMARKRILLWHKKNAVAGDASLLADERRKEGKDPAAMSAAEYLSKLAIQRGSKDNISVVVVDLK
Substitution | relative binding score [%]
R163I | -9.9
T173D | -0.977
R123E | 40.2
E128F | 9.86
F56I | -5.26
M68A | 3.83
V76S | 0.78
N149D | 14.2

Sample 5
Target: Interferon regulatory factor 5, full length, phosphomimetic (IRF5, Homo sapiens, UniProt Q13568-2, residues 1-514, S451D/S453D/S456D/S462D)
Method: protein-binding microarray
Molecule type: double-stranded DNA, one strand shown
Medium: in vitro
Tested at: 940 nM top
Notes: 60-bp whole probe
Added: salmon DNA 0.4 mg/ml
Baseline: random background probes
Reading: higher = stronger binding
Shared flanks, not repeated: GCCTAGCAC … GTCTTGATTCGCTTGACGCTGCTG
Sequence | fitted relative affinity [z-score]
CCTCGTCTCTATCAAAAATAGTGCTAG | 1.34
GACGGTATAGGGACTGGGGACGTGCTA | -0.124
TTAGGTCTCGGGTTCGGTTAGTGCTAG | 2.51
GAGCTCCTCCTTCTCTAACCGTGCTAG | 0.197
GTGTTTCTCAAATGTTTTGTTGTGCTA | 1.16
GACGGTGTCGACTTTCGGGACGTGCTA | 1.21
GACGATATCAGGTTTCGAGACGTGCTA | 2.32
TTAGGTATCGGTTTCGATTAGTGCTAG | 12.4
TTAGGTTTCGGTGCCGGTTAGTGCTAG | 13.4
GACGGTATACTTATCCTGACGTGCTAG | -0.282
TTAGAACTAAGTTTCGATTAGTGCTAG | 6.98
TTAGGTTTCGGTTTAGGTTAGTGCTAG | 16.2
GACGGACTGCCTTTCCTGACGTGCTAG | -0.219
TCAGGTATCCTTCTCCTTTAGTGCTAG | 0.901
TTTGGTTTCCTACTGCTTTAGTGCTAG | 1.79
GACGGTTCCGGTTTCGGAACGTGCTAG | 6.02
GACGATTTAAGTATCGAGACGTGCTAG | 1.92
TTAGAACTCGGGACTGGATTAGTGCTA | -0.494
TTAGGTTTCGGGATTCGGTTAGTGCTA | 8.76
GACGGTGTCGGTTCCGGGACGTGCTAG | 0.703
GACGATATCCGTATCGAGACGTGCTAG | 0.685
GACGGTCTCGGTATTGGGACGTGCTAG | 3.48
CAGCCAATCAGGACTCAGGGAGTGCTA | -0.443
GACGAACTGAGTTTCGAGGCGTGCTAG | 3.28
AACGATATCAGTTTCGAGACGTGCTAG | 3.71

Sample 6
Target: Histone acetyltransferase KAT6A, winged helix 2, GST fusion (KAT6A, Homo sapiens, UniProt Q92794, residues 85-181)
Method: protein binding microarray
Molecule type: double-stranded DNA, one strand shown
Medium: in vitro
Tested at: not given
Notes: 8-mer, flanks averaged, mean of 2 arrays, mostly near background
Baseline: not given
Reading: higher = stronger binding
Residues (chain): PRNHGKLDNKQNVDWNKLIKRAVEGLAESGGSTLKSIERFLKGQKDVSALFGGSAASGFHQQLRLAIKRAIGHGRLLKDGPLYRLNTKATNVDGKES
Sequence | E-score
AAAATAGA | 0.0415
CCTTAAGC | -0.00911
AAGTACGT | -0.0777
GCTCCTAA | -0.039
AGGCCGGA | 0.142
TCTCCGAA | 0.0622
CCCGGTTC | 0.0485
ATATAACA | 0.108
CCGTTACA | 0.0115
CGTAACTC | -0.055
ATGTTAAA | -0.0178
AAACTCAA | 0.097
CATTTGGG | -0.00451
GCAAATAC | -0.00589
ATCTCTCA | -0.043
GCTGTGGA | 0.184
CTTCTTCC | -0.0654
ATTGACCG | -0.0789
CGTGCATC | -0.0455

Sample 7
Target: CCND1, cyclin fold, Cln2 fusion (human)
Method: yeast growth competition, sequencing
Medium: yeast
Notes: weak parent motif
Baseline: not given
Reading: higher = stronger binding
Starting sequence: MASTL docking peptide (human); PMIAKNLMCELDE
Substitution | normalised enrichment score
N6P | 0.449
D12S | 0.0334
M2D | 0.301
L7V | -0.147
A4G | -0.0565
L7W | 0.237
I3N | 0.311
L11C | -0.00821
L7Y | 0.00204
K5S | -0.63
L7S | 0.0634
M2P | 0.378
I3S | -0.161
L7F | -0.213
M8K | 0.253

Single results of other studies
Substance | target | test | system | conditions | how to read | endpoint | value
PhoQ, residues 284 288 289 292 302 303 NLMGRA | PhoP, residues 12 14 15 18 19 LQHIR (Escherichia coli, UniProt P23836) | Sort-seq, item: YFP reporter | E. coli | PhoQ-PhoP variant library, added: 10 µM Mg2+ | baseline: high Mg2+ state, higher = stronger signaling | fold induction | 1.59

A few entries again (sample 5):
Sequence | fitted relative affinity [z-score]
CCTCGTCTCTATCAAAAATAGTGCTAG | 1.34
GACGGTATAGGGACTGGGGACGTGCTA | -0.124
TTAGGTCTCGGGTTCGGTTAGTGCTAG | 2.51
GAGCTCCTCCTTCTCTAACCGTGCTAG | 0.197
GTGTTTCTCAAATGTTTTGTTGTGCTA | 1.16
GACGGTGTCGACTTTCGGGACGTGCTA | 1.21
GACGATATCAGGTTTCGAGACGTGCTA | 2.32
TTAGGTATCGGTTTCGATTAGTGCTAG | 12.4
TTAGGTTTCGGTGCCGGTTAGTGCTAG | 13.4
GACGGTATACTTATCCTGACGTGCTAG | -0.282
TTAGAACTAAGTTTCGATTAGTGCTAG | 6.98
TTAGGTTTCGGTTTAGGTTAGTGCTAG | 16.2
GACGGACTGCCTTTCCTGACGTGCTAG | -0.219
TCAGGTATCCTTCTCCTTTAGTGCTAG | 0.901
TTTGGTTTCCTACTGCTTTAGTGCTAG | 1.79
GACGGTTCCGGTTTCGGAACGTGCTAG | 6.02
